Results pooled from the literature.
Numbered parts are unrelated; each lists some results of a single study.

Study 1 — technique: RNA Bind-n-Seq; molecule type: RNA; matrix: in vitro; tested at: 365 nM; relative to: no-protein control; reading: higher = stronger binding; measurement: RBNS enrichment (R)
Target: RNA binding protein fox-1 homolog 2, RRM domain, GST-SBP tag (RBFOX2, Homo sapiens, UniProt O43251-10, residues 100-194)
Notes: natural RNA segment, single round, ends assumed
Residues (chain): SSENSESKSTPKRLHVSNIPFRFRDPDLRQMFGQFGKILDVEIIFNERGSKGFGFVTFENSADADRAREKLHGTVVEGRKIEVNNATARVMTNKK
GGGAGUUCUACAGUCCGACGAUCUCAUUCGAUUGCUAUUUGAGACUUUUAAAUUAAGGUAAAGGCUGCUGGUGUUGGUACCUGUGGAUUUUUCUAUACUGAUGUUUUCGUUUUGCCAAUAUAAUGAGUAUUACUGGAAUUCUCGGGUGCCAA: 0.701
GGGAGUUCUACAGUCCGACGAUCGCCACAGGACAGUCACUAGCACCUACUGGAAACCUCUUUGUGGGAACAUGAAGAAAGAGCCUUUGGGAGAUUCCUGGCUUUCCAUUAGGGCUGAAAGUACAACGGUUCUUUGGAAUUCUCGGGUGCCAA: 0.254
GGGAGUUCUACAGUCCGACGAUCAAGGCAUAAAUGAUAAUAAGUAAGCCUGGUAAUAUGUUCUUAUUUAAGAAGAACCUGAGAAGGUUUUAUUUAUCGGUGGGGGAAGUAUAGCAAACGGUUCUAAAUGAAAAUGGAAUUCUCGGGUGCCAA: 0.692
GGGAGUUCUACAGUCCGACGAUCUCUAUAUGAAGAAGAUGGACAUUUUAUCCUCUUAUGGUGAUGUUUUUUGGAAAUUUCCAUCAUCCUCAAGUCACGCAAAUACCAAUUUCACAUCGGAGCUGCGUGUGAAAUGGAAUUCUCGGGUGCCAA: 0.906
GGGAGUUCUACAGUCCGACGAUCCCAGAAGUUAGUGUCCGAAGACCGAAUUUUAUUUUACAGAGCUUGAAAACUCACUUCAAUGAACAAAGGGAUUCUCCAGGAUUCCAAAGUUUUGAAGUCAUCUUAGCUUUUGGAAUUCUCGGGUGCCAA: 0.472
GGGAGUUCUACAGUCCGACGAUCCCAUCUUCCCAGGGCAGGACCACAGUGGUAAAUCCUAAGGAUGGCCCAGGUGGCCUGUGUGAGCGCCACUAGGCACCAGAAGGUGGCGCUCACGCUCUCGUCCUUAGGGAUGGAAUUCUCGGGUGCCAA: 0.39
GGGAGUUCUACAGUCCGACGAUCUAAUCCUGACGUGGGGUGGAGUGGGGUGAGGCAGAGGGAGCAGCCCCAACACCUGCACUGGGCCAUCUAUGGGAAAGAACACGGGUCGAGUGCAGUCGAGUUGUCUGGCCUGGAAUUCUCGGGUGCCAA: 1.48
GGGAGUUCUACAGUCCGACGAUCAAAGGGUCAAUGGACCUUUCUUUGCACUGUGUGACUUAAUCAACUAUAAAAGCUUACAAUUAGUCUUACAGUUAUGGGAUUGUUAUACUAACCGUGUGAUUGGAACUCCAUGGAAUUCUCGGGUGCCAA: 0.356
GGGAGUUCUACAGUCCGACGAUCUUCUUUGGGAUUGUGAAUAGAAUGUAGCAAAACCAGAUUCCAGUGUACUAGUCAUGGAUCUUUCUCUCCCUGGCAUGUGAAAGUCAGUCUUAGAGGAAGAGAUUCCACUUUGGAAUUCUCGGGUGCCAA: 0.762
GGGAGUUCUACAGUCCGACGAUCACAGACAUGGGACUACAUCAUAAGAUGAUUAGAAUGUUGGACAGCGUAGUAUGCAGCCAGUGGUUAGUUAUUACAAAGAUCCCUUAGUUACUGUAUUGUUUGCUUUCCUUUGGAAUUCUCGGGUGCCAA: 0.568
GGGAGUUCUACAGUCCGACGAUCCCUUCUAGUUGCAUUAGUACUGUCUUUCUGUGGAGUUUGGUUUGAAGACUGGCUCAGCAAGUGGAGGUUUCAAUGUAUUUUUCAGUUGGCUCAUCAGCCAGCAUUGGUGAUGGAAUUCUCGGGUGCCAA: 1.09
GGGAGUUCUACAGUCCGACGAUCGGUGCACGUCGCGGAAAUACUGGUUUAACUACUAGUGUGUUACUGCCUCAUUUAUCUACAUAACAUUAUUAACUAGAACAUAAUGCUUUCAAAGUUUAAGUUAAUGUUAUUGGAAUUCUCGGGUGCCAA: 0.389

Study 2 — technique: universal PBM; molecule type: double-stranded DNA, one strand shown; matrix: in vitro; tested at: 600 nM; reading: higher = stronger binding; measurement: E-score
Target: Sal-like protein 4, full length isoform A (SALL4, Homo sapiens, UniProt Q9UJQ4, residues 1-1053)
UniProt Q9UJQ4, sequence (whole entry, looked up): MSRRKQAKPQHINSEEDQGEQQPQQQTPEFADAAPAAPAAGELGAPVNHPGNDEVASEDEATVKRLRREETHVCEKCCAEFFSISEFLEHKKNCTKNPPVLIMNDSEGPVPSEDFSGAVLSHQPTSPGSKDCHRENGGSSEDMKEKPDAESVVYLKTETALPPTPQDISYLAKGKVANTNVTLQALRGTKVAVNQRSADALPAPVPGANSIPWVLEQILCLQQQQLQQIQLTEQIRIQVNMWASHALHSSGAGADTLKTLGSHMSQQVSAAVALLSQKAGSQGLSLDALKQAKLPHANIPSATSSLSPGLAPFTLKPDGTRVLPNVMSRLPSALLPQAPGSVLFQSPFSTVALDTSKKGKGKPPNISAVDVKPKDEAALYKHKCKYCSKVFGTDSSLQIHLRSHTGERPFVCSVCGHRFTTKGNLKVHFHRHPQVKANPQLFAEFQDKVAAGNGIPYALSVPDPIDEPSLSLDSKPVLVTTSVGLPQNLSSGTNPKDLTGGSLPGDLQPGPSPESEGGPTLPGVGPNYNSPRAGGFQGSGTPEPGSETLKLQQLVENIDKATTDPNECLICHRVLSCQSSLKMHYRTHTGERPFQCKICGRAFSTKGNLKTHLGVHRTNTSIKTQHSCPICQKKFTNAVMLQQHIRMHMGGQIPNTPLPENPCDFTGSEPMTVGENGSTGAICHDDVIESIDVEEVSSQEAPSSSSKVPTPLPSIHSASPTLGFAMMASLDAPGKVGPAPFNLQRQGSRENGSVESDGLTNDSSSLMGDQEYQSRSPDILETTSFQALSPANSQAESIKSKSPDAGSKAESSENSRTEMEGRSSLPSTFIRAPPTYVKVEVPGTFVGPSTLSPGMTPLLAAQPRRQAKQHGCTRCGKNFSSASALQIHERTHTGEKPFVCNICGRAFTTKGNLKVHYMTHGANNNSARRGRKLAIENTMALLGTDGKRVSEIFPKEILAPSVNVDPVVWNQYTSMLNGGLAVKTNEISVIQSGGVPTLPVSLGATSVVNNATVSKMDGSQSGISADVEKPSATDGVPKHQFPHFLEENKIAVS
Notes: 8-mer, flanks averaged, mean of replicates
CAGTAAAA: 0.287
AGTGAAAC: 0.0745
CCGACTCC: -0.21
CGCGGGGC: -0.316
CAGTTATG: 0.291
CGACAATC: -0.134
AACGTCAT: 0.232
CATGTGTA: 0.139
CGCAGCAG: -0.219
CCTAGGGC: -0.274
GGAGAGCC: -0.233
AACGCTTG: -0.0813
ATCACTCG: 0.0154
AATCGTCA: 0.147
GTAGACTA: -0.0598
ACAAAGAG: -0.069
CCCCGGGG: -0.426
GCGAGACC: -0.232
CAATTCTC: 0.104
ATCCAGAG: 0.06
CAGCAGAC: -0.0804

Study 3 — technique: RNA Bind-n-Seq; molecule type: RNA; matrix: in vitro; tested at: not given; relative to: input RNA pool; reading: higher = stronger binding; measurement: bound/input enrichment
Target: RING finger protein unkempt homolog, zinc fingers 1-6, GST-SBP tag (UNK, Homo sapiens, UniProt Q9C0B0, residues 30-357)
Notes: RNA with constant flanks, human-mouse chimeric sites, ends assumed
Construct (chain): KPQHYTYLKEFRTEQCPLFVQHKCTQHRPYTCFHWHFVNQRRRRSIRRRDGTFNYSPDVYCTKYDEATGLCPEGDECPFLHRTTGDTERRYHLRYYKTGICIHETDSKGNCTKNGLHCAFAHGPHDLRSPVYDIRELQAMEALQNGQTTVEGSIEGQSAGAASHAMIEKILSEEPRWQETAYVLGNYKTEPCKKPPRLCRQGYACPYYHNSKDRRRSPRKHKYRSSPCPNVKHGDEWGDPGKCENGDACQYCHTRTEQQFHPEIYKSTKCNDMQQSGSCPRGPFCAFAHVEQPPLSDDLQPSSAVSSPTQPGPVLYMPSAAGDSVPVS
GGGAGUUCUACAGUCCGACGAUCGACUUUGGGACUGGUCCUCGCAACGCAGCCUUCUAUAGCCCUCAUGGACAUAUAUUAGUGCUGGCUGGAUUUGGAAAUCUGAGGGGACAAAUGGAAGUGUGGGAUGUUAAAAACUACAAGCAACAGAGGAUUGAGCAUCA: 0.418 ratio
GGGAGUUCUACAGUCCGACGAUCAGAUUCCCCCUCCUGAGACCUCCUCCGAAGUUGGAGUCUCUUAUAGAUGCCUCAUCCCCUGUUAGUAUUUUAGUUUGGACCACCCAGCCUUGGACAAUUCCCGCCAACCAGGCAAUUUGCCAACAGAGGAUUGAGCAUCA: 3.01 ratio
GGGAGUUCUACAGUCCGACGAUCUAAAUUAGGGCUGCCGUUUUCUGUUUCGCCCUGAGCUGCGGAAAGCCAGAAGAUUUUAUCUAGCUUAUACAAGGCUGCUGGUGUUCCCUCUUUUUUUCCACGAGGGUUUUUUUUCCAGCACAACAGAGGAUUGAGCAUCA: 0.488 ratio
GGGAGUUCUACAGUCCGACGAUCAUGGAGAAGGAUUCUCUGCCCCGCUUUGUGCGCUCUGAAUUUUAUAAGGAGCUAAUCAAGUAGUCAUCUGGUCAGGCUUCCAAAAGUUCCUGUGAGUGUUGAGUUACAUAAUAACCCGCACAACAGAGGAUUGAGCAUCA: 0.184 ratio
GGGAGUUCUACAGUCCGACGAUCUAAGUCCUGUGCCAGCACUUCGCUCAUUAUAUUUUAAAUUCUGGACCAAUAGUGUUUGUUUCCUGAUUAUUGUAUCCAAUACUUUGCCUAGUAUGUAACUCACUCUUCUGGAUAAAUAAACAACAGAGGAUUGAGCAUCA: 6.66 ratio
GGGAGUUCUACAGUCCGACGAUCUCCUGGUCGUGUCCCAGGGGACAAUGUUGUGAACAAAAACUCAAAGCGGACCCUCUAUUGUAGUUCUUGAUUCUCGAAAUGUGCUAUUAUUGUUUGUCUUUUUUUUUUUUUUUUUAAAGACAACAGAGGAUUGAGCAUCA: 1.02 ratio
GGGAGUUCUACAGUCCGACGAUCAACAGAUUGUCUUUAAGGUCAACGUAGGAGAAUGCUGGGGUGAUCAUUGUUGCCCAUGUGCCUUCUGUAAUAGAUGGAAUGCUGUUCCAUGUUACAUCUUUCCUUCACUCCAGAAUUGUUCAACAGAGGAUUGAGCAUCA: 0.0984 ratio
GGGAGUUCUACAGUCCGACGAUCCACAGAGCAGCACCUACCUCCUCCUUCUUUCCACACCUGCAAACUCUUUUACUUGGGCUGAAUAUUUAGUGUAAUUACAUCUCAGCUUUGAGGGCUCCUGUGGCAAAAUACCCGGAUAAACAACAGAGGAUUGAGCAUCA: 0.769 ratio
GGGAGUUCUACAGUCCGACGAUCUUCAAAGAAAAGGGCAGCUGUGUCAUUACUUGGGAGACUCUGGGGGAUAAGUGGAAGGUUCUUUUGUUUAAUUUUCCCCCAAAUGAAGCCAAAGUGUGUGUUGAAGAACUGAGAAAAAAUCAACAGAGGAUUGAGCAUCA: 0.17 ratio
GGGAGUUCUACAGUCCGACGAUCCCACCAGGAUCCCAGAAACAUGACCCUUGCUGCCUACAAAGAGAAGAUGAAGGAGCUCCCGCUGGUGUCUCUGUUCUGCUCCUGCUUCCUGGCCGAUCCCCUGAAUAAGUCGUCCUACAACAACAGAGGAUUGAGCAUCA: 0.254 ratio
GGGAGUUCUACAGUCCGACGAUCCUGGCCUGGCCCUCCCCAGGGGCCUCCUUUCGUAUAGUCACUGCUUCUGCUACGGAUACUUUCAGCUGCAACUCCCUACUGGGUGGGGCACCCAUUUCAGGCAGAAGUUGGUGCCCCCCUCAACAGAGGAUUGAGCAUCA: 0.205 ratio

Study 4 — technique: RNA Bind-n-Seq; molecule type: RNA; matrix: in vitro; tested at: 200 nM; notes: whole 134-nt RNA, ends assumed; together with: 150 mM LiCl; relative to: input library; reading: higher = stronger binding; measurement: log2 enrichment; all molecules: 7-deaza-guanosine replaces G
Target: Ras GTPase-activating protein-binding protein 1, full length (G3BP1, Homo sapiens, UniProt Q13283)
UniProt Q13283, sequence (whole entry, looked up): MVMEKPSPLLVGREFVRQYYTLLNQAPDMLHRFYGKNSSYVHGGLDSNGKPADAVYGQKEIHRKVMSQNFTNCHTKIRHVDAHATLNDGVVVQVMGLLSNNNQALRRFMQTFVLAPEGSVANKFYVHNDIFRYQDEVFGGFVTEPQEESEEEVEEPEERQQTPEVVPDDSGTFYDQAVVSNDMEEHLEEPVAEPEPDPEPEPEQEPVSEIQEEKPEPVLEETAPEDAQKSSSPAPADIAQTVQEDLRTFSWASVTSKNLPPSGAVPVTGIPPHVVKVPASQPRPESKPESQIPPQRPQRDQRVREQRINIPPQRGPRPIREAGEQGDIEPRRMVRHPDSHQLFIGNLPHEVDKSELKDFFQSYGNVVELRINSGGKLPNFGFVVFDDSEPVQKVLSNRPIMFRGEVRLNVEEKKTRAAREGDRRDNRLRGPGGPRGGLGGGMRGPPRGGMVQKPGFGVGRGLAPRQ
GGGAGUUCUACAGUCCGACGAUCGCAGGAAGUAAAAACAAAUGGAAAUGCUUCGGACAGUGGCAGGGGUGGGGGUUGCUAAGGAAAGGGUGGGAUGGGAGUGGGUAAAGAGUUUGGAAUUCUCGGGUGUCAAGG: -0.0336
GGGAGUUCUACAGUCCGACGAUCAGUGGGUUUGUUGAAGCAGUUGCUGGUGCAACAGCUAGGUUUGACUGAGAAGAGCGUUCAGGAAGACUGGCAACAUUUCCCAAGAUACAGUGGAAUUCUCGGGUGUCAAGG: -2.69
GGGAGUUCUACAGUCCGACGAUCUCCUGUGCUACACAUCGUAUGUACCGAAUCGGGGUUUUUUGGUUUUUUGGUUUUUUGGGAAAGUAUUAUGUUACGCCGUUCGGAUCUGCAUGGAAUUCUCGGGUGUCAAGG: 0.29
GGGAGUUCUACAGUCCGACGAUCACCAUGCAGGUGGGCAUCUUUGGGAAGUGGGGCAAGGGGGGGAUAGGGAGGGGGGUAACACUUUGGGAACAGGCGGUCCCAGGUCGUUUCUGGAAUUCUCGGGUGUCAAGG: 0.101
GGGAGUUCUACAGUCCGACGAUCACCAUGCAGGUGGGCAUCUUUGGGAAGUGGGGCAAGGGGGGGAUAGGGAGGGGGGUAACACUUUGGGAAAAAGUGGUCCCAGGUCGUUUCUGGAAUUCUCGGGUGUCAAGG: 0.379
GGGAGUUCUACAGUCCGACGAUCACCAUGCAGGUGGGCAUCUUUGGGAAGUGGGGCAAGGGGGUGAUAGGGAGGGGGGUAACACUUUGGGAACAGGUGGUCCCAGGUCGUUUCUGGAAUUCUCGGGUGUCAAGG: 0.176
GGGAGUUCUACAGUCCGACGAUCUGGGAGGUGGAUUUUGUUUAUUUUUUUAGCUCAUUUCCAGGGGUGGGAAUUUUUUUUUAAUAUGUGUCAGGAAUAAAGUUGUUUUUGAAAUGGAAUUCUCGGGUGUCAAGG: 0.0144
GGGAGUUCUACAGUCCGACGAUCAAGUCCUGUGCUACACAUCGUAUGUACCGAAUCGGGGCCCGGGGCCCGGGCCCGGGAAAGUAUUAUGUUACGCCGUUCGGAUCUGCACUUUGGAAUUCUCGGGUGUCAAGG: -1.06
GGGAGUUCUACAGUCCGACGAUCUCCUGUGCUACACAUCGUAUGUACCGAAUCGGGCCCCCCGGGCCCCCCGGGGCCCCCCGGAAAGUAUUAUGUUACGCCGUUCGGAUCUGCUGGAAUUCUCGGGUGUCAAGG: -1.17
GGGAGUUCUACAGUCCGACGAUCUCCUGUGCUACACAUCGUAUGUACCGAAUCGGCCCCCCGGGGCCCCCCGGGCCCCCCGGAAAGUAUUAUGUUACGCCGUUCGGAUCUGCAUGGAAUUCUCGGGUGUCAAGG: -1.77
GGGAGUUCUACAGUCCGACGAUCUGUGCUACACAUCGUAUGUACCGAAUCGGGGCCCCCCCGGGGCCCCCCCGGCCCCCCCGGGGAAAGUAUUAUGUUACGCCGUUCGGAUCUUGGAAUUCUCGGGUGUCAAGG: -0.308

A few entries again (study 2):
GTAGACTA: -0.0598
ACAAAGAG: -0.069
CCCCGGGG: -0.426
GCGAGACC: -0.232
CAATTCTC: 0.104
